Measurements pooled from the literature.
Each numbered part is a random draw from the data of one study; scales do not carry over between parts. Positions count from the first letter of the parent shown.

Block 1
Target: Interferon regulatory factor 7, full length, phosphomimetic (IRF7, Homo sapiens, UniProt Q92985, residues 1-503, S471D/S472D/S475D/S476D/S477D/S483D/S484D/S487D)
UniProt Q92985, sequence (whole entry, unmodified, looked up): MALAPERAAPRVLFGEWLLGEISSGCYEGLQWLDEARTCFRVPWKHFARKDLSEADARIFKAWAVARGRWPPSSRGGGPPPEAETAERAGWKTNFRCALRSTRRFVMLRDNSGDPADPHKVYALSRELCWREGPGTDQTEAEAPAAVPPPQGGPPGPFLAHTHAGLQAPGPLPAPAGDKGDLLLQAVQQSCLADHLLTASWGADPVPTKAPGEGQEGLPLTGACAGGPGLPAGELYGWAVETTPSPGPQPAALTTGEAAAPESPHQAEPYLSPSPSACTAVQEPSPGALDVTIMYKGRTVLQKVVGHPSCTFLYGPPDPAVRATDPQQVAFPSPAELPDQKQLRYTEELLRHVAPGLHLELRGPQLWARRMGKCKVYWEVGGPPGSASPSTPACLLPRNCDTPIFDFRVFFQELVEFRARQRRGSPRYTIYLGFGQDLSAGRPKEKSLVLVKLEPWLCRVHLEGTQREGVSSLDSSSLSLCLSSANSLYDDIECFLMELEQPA
Method: protein-binding microarray
Form: double-stranded DNA, one strand shown
Matrix: in vitro
Tested at: 2200 nM top
Notes: 60-bp whole probe
With: salmon DNA 0.4 mg/ml
Reference: random background probes
Reading: higher = stronger binding
Endpoint: fitted relative affinity
All sequences stand within: GCCTAGCAC … GTCTTGATTCGCTTGACGCTGCTG
TTAGATCTCAGACTGGCTTAGTGCTAG: -0.11 z-score
AAGACTTTGCTCTGTGCATAGGTGCTA: -0.0553 z-score
GACGGTTTCGACTATCGAGACGTGCTA: 3.17 z-score
TTAGGTATCGGTACCGGTTAGTGCTAG: 0.386 z-score
TTAGGTATCGAGTTTCGGTTAGTGCTA: 5.05 z-score
TCATATACCACTCTTGCACTGTGCTAG: 1.3 z-score
TCATATGTGTATATATAACTGTGCTAG: 1.03 z-score
TTAGGTATCCACACTGGGTTAGTGCTA: -0.0506 z-score
TTAGGTCTCGGTCACGGTTAGTGCTAG: 0.125 z-score
GACTAACTGAGACTGGAGACGTGCTAG: -0.35 z-score
GACGGTCTCCTTTGCCTGACGTGCTAG: 0.857 z-score
CTAGGTTTCCTACTGCTTTAGTGCTAG: 1.3 z-score
GTATATATAATATATATTCATGTGCTA: 0.25 z-score
TACGGACTGGGTTTCGGGACGTGCTAG: 1.55 z-score
TTAGGACTGGGGACTGGGTCAGTGCTA: -1.12 z-score
TTAGATCTCGGACTGGATTAGTGCTAG: 0.207 z-score
TCATGTCCCTGTTTCTAACTGTGCTAG: 2.46 z-score
GACTGTATCGGGTATCGGGACGTGCTA: 0.0409 z-score

Block 2
Target: ATF3, bZIP domain (human)
Method: DHFR protein complementation
Matrix: yeast
Notes: single substitutions, most at no-binding floor
Reference: wild-type JUN-FOS pair
Reading: higher = stronger binding
Endpoint: binding fitness
Starting sequence: JUN, bZIP domain (human); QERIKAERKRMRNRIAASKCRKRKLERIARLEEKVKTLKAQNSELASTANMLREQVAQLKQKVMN; partner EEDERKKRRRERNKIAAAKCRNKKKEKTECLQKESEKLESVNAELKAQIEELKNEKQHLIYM
E54A: -0.22 natural log
S47T: -0.126 natural log
E32S: -0.26 natural log
A40V: -0.112 natural log
E32Y: -0.459 natural log
R53S: -0.259 natural log
E44T: -0.308 natural log
I28W: -0.18 natural log
L52F: -0.781 natural log
E33D: -0.212 natural log
A46M: 0.0305 natural log
A29M: -0.439 natural log
T37L: -0.0134 natural log

Block 3
Target: CCNA1, cyclin fold, Cln2 fusion (human)
Method: yeast growth competition, sequencing
Matrix: yeast
Notes: weak parent motif
Reference: not given
Reading: higher = stronger binding
Endpoint: normalised enrichment score
Starting sequence: SAMHD1 docking peptide (human); ASKSRVQLFKDDP; partner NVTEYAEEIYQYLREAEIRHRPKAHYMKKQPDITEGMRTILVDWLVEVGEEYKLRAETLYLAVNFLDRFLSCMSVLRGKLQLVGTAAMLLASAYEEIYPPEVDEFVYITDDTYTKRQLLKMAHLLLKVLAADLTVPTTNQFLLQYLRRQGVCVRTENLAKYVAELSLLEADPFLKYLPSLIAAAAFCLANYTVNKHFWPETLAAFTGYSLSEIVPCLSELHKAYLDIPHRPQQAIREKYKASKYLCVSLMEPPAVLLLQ
L8T: 0.336
K3C: 0.221
Q7H: 0.58
D11L: -0.25
K10A: 0.156
Q7N: 0.134
K10V: 0.153
K3H: 0.387
K3A: 0.428
S2W: -0.0893
V6S: -0.351
D11P: 0.341
D12K: 0.109
S2C: 0.34
V6P: -0.215
Q7P: 0.119
Q7A: -0.236

Block 4
Target: RNA binding protein fox-1 homolog 2, RRM domain, GST-SBP tag (RBFOX2, Homo sapiens, UniProt O43251-10, residues 100-194)
Method: RNA Bind-n-Seq
Form: RNA
Matrix: in vitro
Tested at: 365 nM
Notes: natural RNA segment, single round, ends assumed
Reference: no-protein control
Reading: higher = stronger binding
Endpoint: RBNS enrichment (R)
Construct (chain): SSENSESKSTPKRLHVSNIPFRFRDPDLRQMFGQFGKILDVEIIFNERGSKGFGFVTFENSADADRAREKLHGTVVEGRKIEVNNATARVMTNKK
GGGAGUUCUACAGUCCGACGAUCACCUUCCGUUUCCAGCUUCUCCCACUUCAGCCUGUUCCCACGGCACCGGGGUUUCUACUCCUGUACCCUCUGCAGGUGGAGAGAGAGAAGCUGGGCCCAGUUUGGCCAUGUGGAAUUCUCGGGUGCCAA: 0.24
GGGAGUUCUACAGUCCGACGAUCGCUUGUACGUAGCUUGCCACUCAGUGAAAAUAAUAACAUUAUUAUGAGAAAGUGGACUUAACCGAAAUGGAACCAACUGACAUUCUAUCGUGUUGUACAUAGAAUGAUGAUGGAAUUCUCGGGUGCCAA: 2.83
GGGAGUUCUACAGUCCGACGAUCUCUUUGCACCAGAGAGCAUUUUGCAUUCUGGACUUGAUAGACGCACCCCUUUUUAUACAGAUGUUUUUAUAUGUGUGUGCUCAGGCCUGCCGAGAUGCAGGGCAAAGUUGUGGAAUUCUCGGGUGCCAA: 0.968
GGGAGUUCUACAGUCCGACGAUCAUUUUUUUAGGCUAUAGAAUGAUAUUACAGGUCCCAUGUUGGCUGGAUGGUUGCGUGAGUUUUCGUGUGGCUGAAGAGGCUGCUGCCCUCUUACCUUGCCCUGUUCCCGGUGGAAUUCUCGGGUGCCAA: 0.639
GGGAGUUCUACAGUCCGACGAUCUUACUGCUAUUUUAAAAUGUCUUGAUUAUUGAAUGUGAGACCCUCUGACAUGAUUUGAGAAGCUGCACACAUAGGCAGAGUCAUUUUCCUGUUUACAUUGUUUGUUUGGGUGGAAUUCUCGGGUGCCAA: 2.67
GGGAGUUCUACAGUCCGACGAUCCUGAAUGGUUUGUGAACUUGCUCACCUGGACCACUGUAUCCUGCCACUGUCCUUCCUGGUCUCGCACUGCCACUGCAUGGCCUCCUGUCACUGUGAAUCGUGGCCCAGUCUGGAAUUCUCGGGUGCCAA: 2.14
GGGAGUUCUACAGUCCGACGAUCCUAGAACAGUGACUAUAAAUGAUGUAUGGGAAUAGUGUUUCCAUAUGAUCUGUUGUCUGGAGUAUAUGCUACAUGUUCAUUUACUGUACAAAAACCCAGUGCAGCUGAUGUGGAAUUCUCGGGUGCCAA: 0.343
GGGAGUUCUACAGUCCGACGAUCCUUAACUUUCUUGUAUGCCUCUAGUAAUUUCAGAGAUUAAAUAUUGCUUUAAACUGUGAUACUUUGAUUUGCUAGAUUGACAAAACUGAUACUAAUAUAAUUAAGUUCAUUGGAAUUCUCGGGUGCCAA: 0.556
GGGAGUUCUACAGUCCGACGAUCAGAGAAAAUGAGGAAGAAGCAAAAGUGGAAACCCCUGAUAAGCCAUCAGAUCUUGUGAAACUUAUUCACUAUCACAAGAAUAGCAUGGGAAAGACUGGCCCCCAUGAUUCUGGAAUUCUCGGGUGCCAA: 0.44
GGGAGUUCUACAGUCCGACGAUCUUCAGGACCAUCCCAGAAAGGGGUGAUAGCCCUGUUUAUCUCUCCAACCCAGUAUCUCAUGUGCCAAAGCCUUCCCCCAGGUAGACAGAGGGGACAUUGCCUGAGAGCUCUGGAAUUCUCGGGUGCCAA: 0.256
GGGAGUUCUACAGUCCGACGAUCAGGACUGGCUGUAACCUUAAGCCCAUCAAAGUUACUUCCAGCCUGGAGAGAACCUCACCAAACAGCUGGUGUGGCCUGAGGGUGGCCAUGGUGGGAAAUGGGCAUGAGAAUGGAAUUCUCGGGUGCCAA: 0.778
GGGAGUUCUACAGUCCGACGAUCGUUUGUAAUUGUGCAUUACUGACUGCAUAUGUUUGUGUAUGUGUAAAUGUGGGCUCCCUGUUAAGUGGGGCUCAUGGAUACGAGGCCUGAGGAAGUGUGGCUUGCUAGUCUGGAAUUCUCGGGUGCCAA: 0.928
